{"data": "Results from different studies", "note": "Parts stem from different laboratories: compare values within a part only. “And” joins repeats or separate records; there may be more than shown. Positions count from the first letter of the parent shown.", "UniProt Q13554, sequence (whole entry, looked up)": "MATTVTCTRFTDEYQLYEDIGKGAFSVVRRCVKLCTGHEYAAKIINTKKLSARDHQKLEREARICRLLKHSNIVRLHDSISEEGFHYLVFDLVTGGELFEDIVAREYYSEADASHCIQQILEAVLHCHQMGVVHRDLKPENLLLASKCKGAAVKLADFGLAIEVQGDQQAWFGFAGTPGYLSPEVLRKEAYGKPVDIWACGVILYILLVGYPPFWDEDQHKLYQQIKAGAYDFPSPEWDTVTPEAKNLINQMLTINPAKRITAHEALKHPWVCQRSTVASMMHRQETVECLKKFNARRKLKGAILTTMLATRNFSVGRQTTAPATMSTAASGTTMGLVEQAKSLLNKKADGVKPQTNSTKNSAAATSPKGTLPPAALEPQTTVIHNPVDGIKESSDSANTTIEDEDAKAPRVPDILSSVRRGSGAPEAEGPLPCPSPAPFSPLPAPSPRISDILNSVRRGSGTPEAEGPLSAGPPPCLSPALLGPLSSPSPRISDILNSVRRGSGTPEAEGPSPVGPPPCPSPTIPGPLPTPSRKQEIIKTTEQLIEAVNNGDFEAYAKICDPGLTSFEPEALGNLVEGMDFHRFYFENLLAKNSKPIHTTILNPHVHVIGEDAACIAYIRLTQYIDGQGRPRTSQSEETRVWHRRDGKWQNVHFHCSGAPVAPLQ", "UniProt P54760, sequence (whole entry, looked up)": "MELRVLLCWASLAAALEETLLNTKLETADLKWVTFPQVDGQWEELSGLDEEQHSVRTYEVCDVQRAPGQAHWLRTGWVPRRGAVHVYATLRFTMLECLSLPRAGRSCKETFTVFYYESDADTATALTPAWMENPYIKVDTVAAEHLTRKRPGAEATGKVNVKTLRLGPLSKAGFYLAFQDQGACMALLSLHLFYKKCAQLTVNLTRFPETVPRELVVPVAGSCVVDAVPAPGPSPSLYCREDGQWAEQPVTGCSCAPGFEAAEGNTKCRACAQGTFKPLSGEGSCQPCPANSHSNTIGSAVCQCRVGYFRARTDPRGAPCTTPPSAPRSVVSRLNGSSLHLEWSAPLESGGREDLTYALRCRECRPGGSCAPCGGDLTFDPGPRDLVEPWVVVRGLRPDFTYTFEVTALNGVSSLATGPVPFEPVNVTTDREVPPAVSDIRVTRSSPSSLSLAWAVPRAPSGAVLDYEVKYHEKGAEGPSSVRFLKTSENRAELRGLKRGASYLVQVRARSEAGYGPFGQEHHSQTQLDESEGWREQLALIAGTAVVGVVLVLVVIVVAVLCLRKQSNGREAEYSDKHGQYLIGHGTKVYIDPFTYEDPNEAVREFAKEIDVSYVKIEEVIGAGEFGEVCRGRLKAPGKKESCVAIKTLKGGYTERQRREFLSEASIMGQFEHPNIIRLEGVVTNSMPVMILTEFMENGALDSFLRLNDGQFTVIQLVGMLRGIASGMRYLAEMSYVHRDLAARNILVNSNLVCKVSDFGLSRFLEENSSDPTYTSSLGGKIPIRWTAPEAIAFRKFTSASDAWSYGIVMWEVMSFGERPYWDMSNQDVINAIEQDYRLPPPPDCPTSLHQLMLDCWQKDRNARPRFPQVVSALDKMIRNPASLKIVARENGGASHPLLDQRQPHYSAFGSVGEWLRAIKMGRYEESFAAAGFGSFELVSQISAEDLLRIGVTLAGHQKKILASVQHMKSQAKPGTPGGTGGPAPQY", "UniProt P54762, sequence (whole entry, looked up)": "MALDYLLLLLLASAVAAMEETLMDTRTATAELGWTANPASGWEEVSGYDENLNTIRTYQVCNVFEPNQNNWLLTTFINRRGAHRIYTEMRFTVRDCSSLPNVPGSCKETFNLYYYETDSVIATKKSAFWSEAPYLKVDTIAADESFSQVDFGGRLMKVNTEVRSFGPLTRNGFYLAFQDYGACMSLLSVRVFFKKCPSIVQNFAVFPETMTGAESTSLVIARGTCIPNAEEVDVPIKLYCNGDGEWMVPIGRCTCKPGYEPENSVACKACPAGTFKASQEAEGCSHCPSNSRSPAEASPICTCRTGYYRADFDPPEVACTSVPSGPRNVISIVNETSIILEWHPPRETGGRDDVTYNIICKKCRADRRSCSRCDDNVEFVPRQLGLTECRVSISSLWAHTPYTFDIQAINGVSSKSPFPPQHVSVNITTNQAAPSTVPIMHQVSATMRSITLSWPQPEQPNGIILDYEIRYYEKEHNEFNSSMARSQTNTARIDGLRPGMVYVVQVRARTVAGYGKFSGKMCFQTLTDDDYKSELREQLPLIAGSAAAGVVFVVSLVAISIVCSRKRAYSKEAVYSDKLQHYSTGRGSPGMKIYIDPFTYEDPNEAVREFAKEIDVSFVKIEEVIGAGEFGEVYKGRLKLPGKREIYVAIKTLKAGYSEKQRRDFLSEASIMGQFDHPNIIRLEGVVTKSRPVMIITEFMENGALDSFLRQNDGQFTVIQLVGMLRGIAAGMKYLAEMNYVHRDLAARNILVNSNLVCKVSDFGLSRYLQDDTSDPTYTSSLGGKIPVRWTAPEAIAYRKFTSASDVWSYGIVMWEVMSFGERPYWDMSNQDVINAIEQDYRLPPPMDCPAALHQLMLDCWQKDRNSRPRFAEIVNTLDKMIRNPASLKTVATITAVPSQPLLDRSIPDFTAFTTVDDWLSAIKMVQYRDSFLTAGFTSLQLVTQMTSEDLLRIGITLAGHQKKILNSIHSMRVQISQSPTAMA"}
{"data": "Sample 1", "target": "Muscarinic acetylcholine receptor M1 (CHRM1, Homo sapiens, UniProt P11229)", "observed": "ligand displacement", "concentration": "10 µM", "UniProt P11229, sequence (whole entry, looked up)": "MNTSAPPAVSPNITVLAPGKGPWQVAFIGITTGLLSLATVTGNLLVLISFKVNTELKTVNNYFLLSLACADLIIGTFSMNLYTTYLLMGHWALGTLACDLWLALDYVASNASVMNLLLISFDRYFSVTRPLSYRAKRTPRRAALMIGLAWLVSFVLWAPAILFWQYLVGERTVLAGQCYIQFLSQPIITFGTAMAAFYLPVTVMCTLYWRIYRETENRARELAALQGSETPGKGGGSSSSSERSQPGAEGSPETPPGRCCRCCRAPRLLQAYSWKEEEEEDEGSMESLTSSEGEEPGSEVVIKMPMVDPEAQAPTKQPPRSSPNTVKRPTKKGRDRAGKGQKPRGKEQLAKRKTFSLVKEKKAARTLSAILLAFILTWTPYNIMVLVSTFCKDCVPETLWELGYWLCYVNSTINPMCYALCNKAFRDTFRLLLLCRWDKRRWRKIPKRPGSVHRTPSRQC"}
{"Compound": "CN1CCN(C(=O)C(C)(C)c2ccc(C(=O)Nc3cn4cc(-c5cc(C(C)(C)C)cc(C(C)(C)C)c5)ccc4n3)cc2)CC1", "inhibition": "68.3%"}
{"Compound": "CN([C@@H]1CCc2c(CC(=O)O)c3ccccc3n2C1)S(=O)(=O)c1ccc(F)cc1", "inhibition": "2.42%"}
{"Compound": "CNC(=O)Nc1ccc2c(c1)CC[C@]21OC(=O)N(CC(=O)N(Cc2ccc(F)cc2)[C@@H](C)C(F)(F)F)C1=O", "inhibition": "2.64%"}
{"Compound": "Cc1ccc(-c2cnc([C@@]3(O)CC[C@H](C(=O)O)C(C)(C)C3)s2)cc1Nc1cccc(C(F)(F)F)n1", "inhibition": "-6.43%"}
{"Compound": "COc1cc(C(=O)O)ncc1C#Cc1ccccc1NS(=O)(=O)c1cccc2c(N(C)C)ccnc12", "inhibition": "25%"}
{"Compound": "Cn1nc(C(=O)NCc2ccc(C(=O)O)cc2)cc1-c1ccc2[nH]ccc2c1", "inhibition": "-23.3%"}
{"Compound": "COc1cc(N[C@@H]2CCCC[C@]2(O)C(F)(F)F)ccc1F", "inhibition": "18.5%"}
{"Compound": "Cc1cc(Nc2nccc(C)n2)cc(-c2cnc([C@@]3(O)CC[C@H](C(=O)O)C(C)(C)C3)s2)c1", "inhibition": "-13.7%"}
{"Compound": "NC(=O)c1ccc2nc(-c3ccc(C4(N)CCC4)cc3)c(-c3ccccc3)n2n1", "inhibition": "71.9%"}
{"Compound": "Nc1nc(NCc2ccccc2)nc(-c2ccccc2CO)n1", "inhibition": "23.6%"}
{"Compound": "CC[C@H](CC(=O)O)n1c(=O)c2ncccc2n(Cc2cn(C)c3cc(C)cc(C)c23)c1=O", "inhibition": "8.69%"}
{"data": "Sample 2", "target": "CCND1, cyclin fold, Cln2 fusion (human)", "technique": "yeast growth competition, sequencing", "sample": "yeast", "setting": "strong parent motif", "relative to": "not given", "direction": "higher = stronger binding", "starting sequence": "viral docking peptide; YKVKRRLVFGADD; partner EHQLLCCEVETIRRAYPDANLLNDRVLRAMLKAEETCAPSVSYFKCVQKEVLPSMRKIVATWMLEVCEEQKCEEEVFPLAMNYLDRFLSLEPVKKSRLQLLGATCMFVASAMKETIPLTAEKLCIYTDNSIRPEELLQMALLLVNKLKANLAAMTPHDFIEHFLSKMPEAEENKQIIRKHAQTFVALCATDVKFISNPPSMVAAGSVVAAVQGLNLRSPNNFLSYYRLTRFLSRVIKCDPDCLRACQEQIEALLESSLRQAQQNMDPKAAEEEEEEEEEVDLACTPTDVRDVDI"}
{"Variant": "YLVKRRLVFGADD [K2L]", "normalised enrichment score": 1.27}
{"Variant": "YKVKRRGVFGADD [L7G]", "normalised enrichment score": -0.0485}
{"Variant": "YKVKRRLVFGAQD [D12Q]", "normalised enrichment score": 1.09}
{"Variant": "YKVKRRLVFGIDD [A11I]", "normalised enrichment score": 1.84}
{"Variant": "YKVKRRLVFGALD [D12L]", "normalised enrichment score": 0.616}
{"Variant": "YKCKRRLVFGADD [V3C]", "normalised enrichment score": 3.67}
{"Variant": "YKVKRRLVFSADD [G10S]", "normalised enrichment score": 1.83}
{"Variant": "YKVKRRLVFGLDD [A11L]", "normalised enrichment score": 1.97}
{"data": "Sample 3", "SMILES": "COc1ccc2c(c[n+](C)c3c4cc5c(cc4ccc23)OCO5)c1OC", "observed": "enzyme activity", "mode": "inhibitor", "concentration": "0.5 µM", "relative to": "control"}
{"target": "CAMK2B (Homo sapiens, UniProt Q13554)", "remaining activity [%]": 98.9}
{"target": "EPHB4 (Homo sapiens, UniProt P54760)", "remaining activity [%]": 91.7}
{"target": "EPHB1 (Homo sapiens, UniProt P54762)", "remaining activity [%]": 90.4}
{"data": "Single results of other studies", "technique": "CCK-8"}
{"SMILES": "CC(C)(C)c1nc(-c2cccc(NS(=O)(=O)c3c(F)cccc3F)c2F)c(-c2ccnc(N)n2)s1", "cell line": "L929", "test": "necroptosis protection", "conditions": "6.25 µM, added: TNF-α-induced", "viability": "45.5%"}
{"SMILES": "N#Cc1c(Oc2ccc(F)c(NC(=O)Cc3cccc(C(F)(F)F)c3)c2)ccc2nc(NC(=O)C3CC3)sc12", "cell line": "L929", "test": "necroptosis protection", "conditions": "20 µM, added: TNF-α-induced", "viability": "86.3%"}
{"SMILES": "CC[C@H](C)c1nc2cc(Nc3ccnc4ccc(S(=O)(=O)C(C)C)cc34)ccc2s1.Cl", "cell line": "HT-29", "test": "necroptosis protection", "conditions": "1.25 µM, added: TNF-α SMAC mimetic zVAD", "viability": "22.7% and 40.9% and 23.5% and 16.2%"}
{"SMILES": "Cc1ccc(O)cc1Nc1ccnc2cc(-c3ccccn3)ccc12", "cell line": "L929", "conditions": "3.125 µM", "viability": "35.3% and 34.5% and 47.4% and 44.9% and 46.8%"}
{"note": "Excerpt of the above (sample 3):"}
{"target": "CAMK2B (Homo sapiens, UniProt Q13554)", "remaining activity [%]": 98.9}
{"target": "EPHB4 (Homo sapiens, UniProt P54760)", "remaining activity [%]": 91.7}
{"target": "EPHB1 (Homo sapiens, UniProt P54762)", "remaining activity [%]": 90.4}
